Measured values gathered from unrelated publications.
Every numbered part comes from another study and shows a few of its results, in no order. Values joined by “and” are separate records of one study, mostly repeats; a detail may differ.

Block 1
Structure (SMILES): C=CCc1ccc(O)c(-c2ccc(O)c(CC=C)c2)c1
Target: Anoctamin-1 (ANO1, Homo sapiens, UniProt Q5XXA6, del476-501)
Chain of UniProt Q5XXA6 (whole entry, unmodified, looked up): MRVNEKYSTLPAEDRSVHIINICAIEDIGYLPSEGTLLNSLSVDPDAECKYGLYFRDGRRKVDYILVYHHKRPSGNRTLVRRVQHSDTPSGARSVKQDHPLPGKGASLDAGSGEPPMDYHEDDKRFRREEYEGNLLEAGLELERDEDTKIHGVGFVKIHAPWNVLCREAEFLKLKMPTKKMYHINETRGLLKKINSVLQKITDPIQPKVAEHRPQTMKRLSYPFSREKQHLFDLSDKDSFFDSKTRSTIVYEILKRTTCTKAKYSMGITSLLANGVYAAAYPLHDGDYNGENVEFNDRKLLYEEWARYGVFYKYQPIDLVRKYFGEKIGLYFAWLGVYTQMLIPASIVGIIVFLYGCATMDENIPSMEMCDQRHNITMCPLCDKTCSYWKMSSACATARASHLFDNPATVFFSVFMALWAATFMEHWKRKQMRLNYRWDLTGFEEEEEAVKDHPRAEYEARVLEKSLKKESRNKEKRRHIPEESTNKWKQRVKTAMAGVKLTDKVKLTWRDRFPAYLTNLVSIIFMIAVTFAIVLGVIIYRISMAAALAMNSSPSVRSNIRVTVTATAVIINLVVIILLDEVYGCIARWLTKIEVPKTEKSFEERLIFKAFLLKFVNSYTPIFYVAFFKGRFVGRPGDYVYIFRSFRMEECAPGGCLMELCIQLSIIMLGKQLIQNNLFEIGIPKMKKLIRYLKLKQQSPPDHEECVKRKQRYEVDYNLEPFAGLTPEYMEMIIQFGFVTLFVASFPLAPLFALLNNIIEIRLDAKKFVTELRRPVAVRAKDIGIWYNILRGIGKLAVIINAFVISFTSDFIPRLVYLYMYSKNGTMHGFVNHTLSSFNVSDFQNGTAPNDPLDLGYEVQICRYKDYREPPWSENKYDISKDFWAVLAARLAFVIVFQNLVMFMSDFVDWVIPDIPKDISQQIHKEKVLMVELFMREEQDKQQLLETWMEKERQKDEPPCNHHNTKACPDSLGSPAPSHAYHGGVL
Effect on: chloride current
Method: whole-cell patch clamp
| tested at | setting | together with | normalised current |
| --- | --- | --- | --- |
| 1 µM | -60 mV, 300 nM free Ca2+ | honokiol and magnolol 10 µM | -0.0818 |
| 1 µM | 40 mV, 300 nM free Ca2+ |  | 0.235 and 0.247 |
| 100 µM | 80 mV, 300 nM free Ca2+ |  | 0.0584 and 0.0613 |
| 10 µM | 100 mV, 300 nM free Ca2+ |  | 0.379 and 0.397 |
| 30 µM | 60 mV, 300 nM free Ca2+ | honokiol and magnolol 10 µM | 0.0347 |
| 100 µM | 40 mV, 300 nM free Ca2+ |  | 0.015 and 0.0157 |
| 10 µM | 20 mV, 300 nM free Ca2+ |  | 0.0212 and 0.0202 |

Block 2
Target: 5-hydroxytryptamine receptor 5A (HTR5A, Homo sapiens, UniProt P47898)
Chain of UniProt P47898 (whole entry, looked up): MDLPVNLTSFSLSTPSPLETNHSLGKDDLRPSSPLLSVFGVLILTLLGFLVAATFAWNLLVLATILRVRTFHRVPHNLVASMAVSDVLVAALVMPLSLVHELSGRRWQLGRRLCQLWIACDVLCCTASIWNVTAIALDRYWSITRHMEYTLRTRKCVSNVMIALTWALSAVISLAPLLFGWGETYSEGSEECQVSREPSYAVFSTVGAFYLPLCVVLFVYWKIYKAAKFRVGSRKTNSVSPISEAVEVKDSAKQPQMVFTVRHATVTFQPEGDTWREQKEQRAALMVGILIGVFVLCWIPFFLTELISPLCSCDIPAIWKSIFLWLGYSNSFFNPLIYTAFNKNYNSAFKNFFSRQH
Effect on: cell-free assay
Tested at: 10 µM
| SMILES | inhibition |
| --- | --- |
| Cc1c[nH]c2nccc(Oc3c(F)cc(Nc4cc(Cl)nc(N)n4)cc3F)c12 | -9.86% |
| O=C(Nc1cnc(Oc2ccc(F)cc2)nc1)N1CCc2ncccc2[C@@H]1c1ccc(F)cc1 | -11.2% |
| O=C(N[C@H]1CCCCC/C=C\C2C[C@@]2(C(=O)O)NC(=O)[C@@H]2C[C@@H](Oc3ccncc3)CN2C1=O)OC1CCCC1 (stereo partly drawn) | 1.81% |
| O=C(Nc1cccnn1)N1CC(CC=Cc2cncc(Oc3ccc(C(F)(F)F)cn3)n2)C1 | 7.85% |
| COCCc1ccc(-c2c(C)nc3c(N4CCOCC4)ccnn23)cn1 | 3.93% |
| Cn1nc(C(=O)NCc2ccc(C(=O)O)cc2)cc1-c1ccc2[nH]ccc2c1 | 0.78% |
| O=C(Nc1cccnn1)N1CCC(=Cc2cccc(Oc3ccc(C(F)(F)F)cn3)c2)CC1 | 28.4% |
| CN(C)c1ncnc(-c2ccc3nc(Nc4cc(CN5CCN(C(=O)CC(F)(F)F)CC5)ccn4)[nH]c3c2)c1Cl | 23.6% |
| C[C@@H]1CN(c2cc(-c3nn(C)c4ccc(OC5(C)CC5)cc34)ncn2)C[C@H](C)O1 | -6.76% |
| O[C@]1(C(F)(F)F)CCCC[C@H]1Nc1ccc(F)cc1 | -7.74% |
| O=C(NC[C@@H]1[C@H]2CN(C(=O)OCc3cc(C(F)(F)F)cc(C(F)(F)F)c3)C[C@@H]12)c1ccc2[nH]nnc2c1 | 33.2% |
| Cc1nc(Cc2cccc(C(F)(F)F)c2)sc1-c1ccc(C(N)=O)nc1 | 3.99% |

Block 3
Structure (SMILES): CC(C)C[C@@H]1NC(=O)[C@@H](N(C)C(=O)[C@H](CC2CCC2)NC(=O)[C@@H]2C[C@@H](F)CN2C(=O)C2(C(F)(F)F)CC(F)(F)C2)CCCCNC(=O)C2(CC2)NC(=O)[C@H](Cc2cc(Cl)ccc2Cl)N(C)C1=O
Cell line: human CD34+ HSPC
Method: EdU flow cytometry
Time: 24 h
| tested at | G2-M phase cells |
| --- | --- |
| 1000 nM | 6.22% and 7.75% |
| 300 nM | 5.71% and 3.56% |
| 3000 nM | 8.99% and 10.1% |

Block 4
Target: 3-phosphoinositide-dependent protein kinase 1 (PDPK1, Homo sapiens, UniProt O15530)
Effect on: enzyme activity
Mode: inhibitor
Tested at: 0.5 µM
Relative to: control
Target sequence (O15530 1-556): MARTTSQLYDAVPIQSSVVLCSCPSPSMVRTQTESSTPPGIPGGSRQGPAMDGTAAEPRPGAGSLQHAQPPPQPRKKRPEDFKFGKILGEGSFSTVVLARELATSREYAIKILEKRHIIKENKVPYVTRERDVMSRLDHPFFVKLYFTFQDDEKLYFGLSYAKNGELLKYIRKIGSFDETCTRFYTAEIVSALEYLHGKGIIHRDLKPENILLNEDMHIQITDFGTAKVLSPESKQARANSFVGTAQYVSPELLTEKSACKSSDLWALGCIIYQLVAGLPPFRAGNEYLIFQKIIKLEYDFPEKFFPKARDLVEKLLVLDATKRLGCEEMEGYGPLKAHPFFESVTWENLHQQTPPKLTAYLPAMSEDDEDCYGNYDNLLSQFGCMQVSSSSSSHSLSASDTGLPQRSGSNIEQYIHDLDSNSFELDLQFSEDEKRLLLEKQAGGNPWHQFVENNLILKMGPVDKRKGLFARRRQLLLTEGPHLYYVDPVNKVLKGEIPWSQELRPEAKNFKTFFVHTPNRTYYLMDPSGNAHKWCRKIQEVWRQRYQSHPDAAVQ
| Structure (SMILES) | remaining activity |
| --- | --- |
| Oc1ccc(-c2nc(-c3ccncc3)c(-c3ccc(F)cc3)[nH]2)cc1 | 98.2% |
| O=C1NC(=O)C(c2cn(CCCn3ccnc3)c3ccccc23)=C1Nc1ccccc1 | 80.3% |
| COc1ccc(C(=O)Nc2sc3c(c2C(N)=O)CCCC3)cc1OC | 87.8% |
| Nc1[nH]nc2nc3ccccc3nc12 | 96.8% |
| Cn1sc(=O)n(Cc2ccccc2)c1=O | 95.5% |
| COc1cc2ncnc(Nc3ccc(F)c(Cl)c3)c2cc1OCCCN1CCOCC1 | 88.2% |
| Cc1nc(-c2ccccc2)c(-c2ccncc2)o1 | 96.9% |
| COc1cc2nccc(Oc3ccc(NC(=S)NC(=O)c4ccccc4C)cc3)c2cc1OC | 105% |
| Nc1ccc2ncnc(NCCc3ccc(Oc4ccccc4)cc3)c2c1 | 105% |
| CC(C)[C@H](CO)Nc1nc(Nc2cc(N)cc(Cl)c2)c2ncn(C(C)C)c2n1 | 106% |
| O=C(Nc1cccc(Nc2cc(Nc3cccc(C(F)(F)F)c3)ncn2)c1)C1CC1 | 100% |
| N#CC(C#N)=C(N)/C(C#N)=C/c1ccc(O)cc1 | 99.4% |
| O=C(CCCc1ccc(-c2ccccc2F)cc1)Nc1ccc(O)cc1 | 112% |
| Cc1ccc(NC(=O)c2ccc(CN3CCN(C)CC3)cc2)cc1Nc1nc(-c2cccnc2)cs1 | 101% |
| Cn1c2ccccc2c2c3c(c4c5ccccc5n(CCC#N)c4c21)CNC3=O | 63.2% |
| COc1ccc(CNC(=O)Nc2ncc([N+](=O)[O-])s2)cc1 | 90% |
| O=C1NC(=O)C(c2cn(CCCO)c3ncccc23)=C1c1cnccn1 | 92.2% |
| COc1cc2ncnc(Nc3ccc(Oc4ccccc4)cc3)c2cc1OC | 111% |
| OCC(O)CCON=C1C(c2c(O)[nH]c3ccccc23)=Nc2ccccc21 (stereo not drawn) | 83.3% |
| Cc1ccc(Nc2nccc(N(C)c3ccc4c(C)n(C)nc4c3)n2)cc1S(N)(=O)=O | 93% |

A few entries again (block 4):
| Structure (SMILES) | remaining activity |
| --- | --- |
| Cn1sc(=O)n(Cc2ccccc2)c1=O | 95.5% |
| COc1cc2ncnc(Nc3ccc(F)c(Cl)c3)c2cc1OCCCN1CCOCC1 | 88.2% |
| Cc1nc(-c2ccccc2)c(-c2ccncc2)o1 | 96.9% |
